Results gathered from unrelated publications.
Parts stem from different laboratories: compare values within a part only. Changes are numbered by the printed parent chain.

Sample 1
Target: HLA class I histocompatibility antigen, A alpha chain, allele A*25:01 (Homo sapiens, UniProt P04439)
Read-out: peptide-MHC binding
Molecule type: peptide
Tested at: concentration not given
Sequence | binding
GSGDDTWLI | inactive
MRIGSMATL | inactive
LTIVFVPEV | inactive
KQIPIWLPL | inactive
MPMSMPIPM | inactive
LFPELECFF | inactive
NIYETEFFM | inactive
KVADVDLAVPV | inactive
FGAQMGWPV | inactive
NTFKFGVIY | inactive
FWAWSVLRV | inactive
YALTEYHAM | inactive
QLFPELECF | inactive
VVSEIDLQW | inactive
FRDEAGAIL | inactive
WKAIGAYIL | inactive
KLKKKSAFY | inactive
AIDDFCLFA | inactive
VILNYIPVL | inactive
SPGDNSAKF | inactive
SYMMDDLELI | inactive
RAYAAMHLW | inactive
FHIVNQESL | inactive
PELGAFFAI | inactive
YPDPVIKV | inactive

Sample 2
Target: CCND3, cyclin fold, Cln2 fusion (human)
Method: yeast growth competition, sequencing
Sample: yeast
Setting: weak parent motif
Relative to: not given
Reading: higher = stronger binding
Starting sequence: viral docking peptide; KGVKRKLFAEDSS; partner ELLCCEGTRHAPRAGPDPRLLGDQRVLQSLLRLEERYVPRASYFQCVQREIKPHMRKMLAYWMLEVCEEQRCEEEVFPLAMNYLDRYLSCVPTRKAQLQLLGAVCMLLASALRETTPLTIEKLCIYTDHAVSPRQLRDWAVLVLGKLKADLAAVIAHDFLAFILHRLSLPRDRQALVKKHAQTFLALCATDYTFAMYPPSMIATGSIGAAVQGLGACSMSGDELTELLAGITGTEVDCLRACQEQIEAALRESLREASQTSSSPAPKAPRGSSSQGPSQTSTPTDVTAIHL
Variant | normalised enrichment score
G2D | 0.149
K4P | -0.0806
V3R | 0.16
S12Y | -0.285
G2W | 0.515
A9F | -0.0822
F8A | 0.209
K4N | -0.0887
D11W | -0.191
D11T | -0.016
F8K | 0.335
K6N | 0.228
E10T | -0.0467
F8P | 0.289
D11K | -0.0329
K6P | 0.194
D11F | 0.474
K4T | -0.119
D11V | 0.145
F8M | 0.018
E10M | 0.29
G2N | 0.131
G2Q | 0.452
F8T | 0.1
R5D | 0.0884

Sample 3
Cell line: HEK-293T-ACE2-TMPRSS2
Method: cell count
Tested at: 10 µM
SMILES | viability [%]
Fc1ccc(Nc2nc3nonc3nc2Nc2cccc(C(F)(F)F)c2)cc1 | 66
CCOC(=O)N1CCN(C2CCCN(C(=O)c3scc4c3CCCC4)C2)CC1 (stereo not shown) | 103
c1ccc(Nc2nccc(-c3cccnc3)n2)cc1 | 77
Cc1nc(C(=O)N2C[C@@H](COCC3CC3)[C@H](c3ccncc3)C2)co1 | 109
Clc1cc2c(c3ncccc13)OCN(C1CCCC1)C2 | 126
CCC(NC(=O)Nc1cccc(C)c1C)c1c(-n2cccc2)sc2c1CCN(C)C2 (stereo not shown) | 108

Sample 4
Target: Ras GTPase-activating protein-binding protein 1, RRM domain (G3BP1, Homo sapiens, UniProt Q13283)
Sequence of UniProt Q13283 (whole entry, looked up): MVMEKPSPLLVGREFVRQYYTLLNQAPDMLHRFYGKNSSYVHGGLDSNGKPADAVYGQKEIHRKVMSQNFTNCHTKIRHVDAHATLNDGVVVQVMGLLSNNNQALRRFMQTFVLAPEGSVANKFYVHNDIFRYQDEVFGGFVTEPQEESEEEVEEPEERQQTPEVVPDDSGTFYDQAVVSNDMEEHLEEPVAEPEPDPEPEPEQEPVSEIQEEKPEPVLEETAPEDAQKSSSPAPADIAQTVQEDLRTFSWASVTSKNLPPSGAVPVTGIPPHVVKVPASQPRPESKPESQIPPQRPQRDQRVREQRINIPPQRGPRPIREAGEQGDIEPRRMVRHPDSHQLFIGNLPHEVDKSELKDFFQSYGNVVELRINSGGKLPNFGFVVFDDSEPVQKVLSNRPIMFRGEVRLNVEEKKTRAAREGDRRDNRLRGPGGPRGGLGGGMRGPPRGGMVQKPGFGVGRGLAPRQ
Method: RNA Bind-n-Seq
Molecule type: RNA
Sample: in vitro
Tested at: 1 µM
Setting: whole 134-nt RNA, ends assumed
Added: 150 mM KCl
Relative to: input library
Reading: higher = stronger binding
All sequences stand within: GGGAGUUCUACAGUCCGACGAUC … UGGAAUUCUCGGGUGUCAAGG
Sequence | log2 enrichment
GCAGGAAGUAAAAACAAAUGGAAAUGCUUCGGAUAGUGGCAGGGGUGGGGGUUGCUAAGGAAAGGGUGGGAUGGGAGAGGGUAAAGAGUU | 0.529
UGGGAGGUGCAUUUUGUUUAUUUUUUUAGCUCAUUUCCAGGGGUGGGAAUUUUUUUUUAAUAUGUGUCAUGAAUAAAGUUGUUUUUGAAA | 1.4
UGGGAGGUGGAUUUUGUUUAUUUUUUUAGCUCAUUUCCAGGGGUGGGAAUUUUUUUUUAAUACGUGUCAUGAAUAAAGUUGUUUUUGAAA | 1.74
UCAAGUCCUGUGCUACACAUCGUAUGUACCGAAUCGGGGAAGGGAAGGGGAAGGAAAGUAUUAUGUUACGCCGUUCGGAUCUGCACUUCC | -0.111
UCAAGUCCUGUGCUACACAUCGUAUGUACCGAAUCGGUUUUUUUGGAAAGGAGGAAAGUAUUAUGUUACGCCGUUCGGAUCUGCACUUCC | -0.116
ACCAUGCAGGUGGGCAUCUUUGGGAAGUGGGGCAAGGGGGGGCUAGGGAGGGGGGUAACACUUUGGGAACAGGUGGUCCCAGGUCGUUUC | 1.04
GUCCUGUGCUACACAUCGUAUGUACCGAAUCGGGUUUUUUGGUUUUUUGGGUUUUUUGGAAAGUAUUAUGUUACGCCGUUCGGAUCUGCA | -0.242
UCAAGUCCUGUGCUACACAUCGUAUGUACCGAAUCGGAAAAAGGUUUUUGGUGGAAAGUAUUAUGUUACGCCGUUCGGAUCUGCACUUCC | -0.18

A few entries again (sample 2):
Variant | normalised enrichment score
S12Y | -0.285
V3R | 0.16
F8P | 0.289
D11F | 0.474
